Results gathered from unrelated publications.
Lines come from different studies, so protocols differ. Numbers after ± are the reported error.
Cell line: HepG2

Compound	assay	conditions	IC50
CCCCCCCC/C=C/CCCCCCCC(=O)[O][Pt-2]1([OH])([Cl])([NH+]=C(CC)N(C)CCNc2c3ccccc3[nH+]c3ccccc23)[NH]CCC[NH]1.O=[N+]([O-])O.O=[N+]([O-])O	cell growth or viability, MTS	72 h	0.16 µM
Cc1ccc2c(Cl)cc(Cl)c([O-])c2n1.Cc1ccc2c(Cl)cc(Cl)c([O-])c2n1.Clc1ccnc2c1ccc1c(Cl)ccnc12.[Co+2]	cell growth or viability, MTT	48 h	5.41 µM
CCCN1C(=O)/C(=C/C(=O)OCC)S/C1=N\N=C\c1cccc2cc3ccccc3nc12	cell growth or viability, MTT	48 h	> 50 µM
O=Cc1ccc2c(c1C#Cc1ccc(O)cc1)C(c1ccc(O)cc1)(c1ccc(O)cc1)c1cc(O)ccc1-2	cell growth or viability, MTT	48 h	> 50 µM
Clc1ccnc2c1ccc1c(Cl)ccnc12.[Co+2].[O-]c1c(Br)cc(Br)c2cccnc12.[O-]c1c(Br)cc(Br)c2cccnc12	cell growth or viability, MTT	48 h	30.5 µM
O=C1C=C(O)C(=O)c2ccccc21	cell growth or viability, MTT	–	248 µM
OC[C@H]1O[C@@](CO)(O[C@H]2O[C@H](CO)[C@@H](O)[C@H](O)[C@H]2O)[C@@H](O)[C@@H]1O	cell growth or viability	–	> 10 µM
c1ccc2nc3c4cccnc4c4ncccc4c3nc2c1	cell growth or viability, MTT	48 h	> 50 µM
CCOC(=O)/C=C1\S/C(=N\N=C\c2cccc3cc4ccccc4nc23)N(c2ccc(OC)cc2)C1=O	cell growth or viability, MTT	48 h	> 50 µM
Cc1ccc(C(C)C)cc1.Cc1ccc(C(C)C)cc1.Cc1ccc(C(C)C)cc1.Cc1ccc(C(C)C)cc1.O=S(=O)(O)C(F)(F)F.O=S(=O)(O)C(F)(F)F.O=S(=O)(O)C(F)(F)F.O=S(=O)(O)C(F)(F)F.c1ccc2c3c4ccccc4c(c2c1)-c1cn(nn1)-c1cc[n+](cc1)[Ru-]1[O]C2=[O+][Ru-]([O]C2=[O+]1)[n+]1ccc(cc1)-n1cc(nn1)-c1c2ccccc2c(c2ccccc12)-c1cn(nn1)-c1cc[n+](cc1)[Ru-]1[O]C2=[O+][Ru-]([O]C2=[O+]1)[n+]1ccc(cc1)-n1cc-3nn1	cell growth or viability, MTT	24 h	14.3 µM
CN1CCC(N[C@@H]2CCc3[nH]c4c(C(N)=O)ccc(-c5ccccc5Cl)c4c3C2)CC1	cell growth or viability	–	0.00852 µM
COc1ccc(O)c(C(=O)c2cnn(-c3oc(C)nc3C#N)c2)c1	cytotoxicity, MTT	–	> 50 µM
NC(=O)c1ccc(-c2ccccc2Cl)c2c3c([nH]c12)CC[C@@H](N)C3	cell growth or viability	–	0.0191 µM
CCCN1C(=O)CS/C1=N\N=C\c1cccc2cc3ccccc3nc12	cell growth or viability, MTT	48 h	> 50 µM
O=Cc1ccc(-c2ccc(O)cc2)c(C(=C2C=CC(=O)C=C2)c2ccc(O)cc2)c1C#Cc1ccc(O)cc1	cell growth or viability, MTT	48 h	12.5 µM
Cc1ccc2c(Cl)cc(Cl)c([O-])c2n1.Cc1ccc2c(Cl)cc(Cl)c([O-])c2n1.[Co+2].c1ccc(-c2ccnc3c2ccc2c(-c4ccccc4)ccnc23)cc1	cell growth or viability, MTT	48 h	6.21 µM
CCC(=[N][Pt-2]1([Cl])[NH2+]CCC[NH2+]1)N(C)CCNc1c2ccccc2nc2ccccc12.O=[N+]([O-])O.O=[N+]([O-])O	cell growth or viability, MTS	72 h	0.00542 µM
COc1ccnc(-c2cc(OC)ccn2)c1.[Co+2].[O-]c1c(I)cc(I)c2cccnc12.[O-]c1c(I)cc(I)c2cccnc12	cell growth or viability, MTT	48 h	33.7 µM
C[C@H]1c2cccc(O)c2C(O)=C2C(=O)[C@]3(O)C(O)=C(C(N)=O)C(=O)[C@@H](N(C)C)[C@@H]3[C@@H](O)[C@@H]21	cell growth or viability	–	> 10 µM
CCC(=[NH+][Pt-2]1([Cl])([O]C(C)=O)([O]C(C)=O)[NH]CCC[NH]1)N(C)CCNc1c2ccccc2[nH+]c2ccccc12.O=[N+]([O-])O.O=[N+]([O-])O	cell growth or viability, MTS	72 h	0.04 µM
CNC(=O)C1CCCN(C(=O)C2CC3CCC2N3C(=O)[C@@H]2C[C@@H](O)CN2C(=O)NCc2cccc(Cl)c2F)C1 (mixture of isomers)	cell growth or viability, CCK-8	72 h	0.6 µM
COC(OC)c1ccc(-c2ccc(O)cc2)c(C(=C2C=CC(=O)C=C2)c2ccc(O)cc2)c1C#Cc1ccc(O)cc1	cell growth or viability, MTT	48 h	> 50 µM

Compound	assay	conditions	IC50
COc1ccc(OC)c2c1CN(c1cn[nH]c(=O)c1Cl)CC2O (stereo not shown)	cytotoxicity, MTT	–	> 50 µM
CC(C)c1ccc(N(C)c2ccc3c(c2)OCC[C@H]3CNc2cnccc2C(=O)O)cc1	cell growth or viability, ATP luminescence	7 days	0.0521 µM
CN1C(=O)CS/C1=N\N=C\c1cccc2cc3ccccc3nc12	cell growth or viability, MTT	48 h	> 50 µM
Cc1ccc(C(C)C)cc1.Cc1ccc(C(C)C)cc1.Cc1ccc(C(C)C)cc1.Cc1ccc(C(C)C)cc1.O=S(=O)(O)C(F)(F)F.O=S(=O)(O)C(F)(F)F.O=S(=O)(O)C(F)(F)F.O=S(=O)(O)C(F)(F)F.c1ccc2c3c4ccccc4c(c2c1)-c1cn(nn1)-c1cc[n+](cc1)[Ru-]1[O]c2c4ccccc4c4c5c(c6ccccc6c(c25)=[O+]1)=[O+][Ru-]([O]4)[n+]1ccc(cc1)-n1cc(nn1)-c1c2ccccc2c(c2ccccc12)-c1cn(nn1)-c1cc[n+](cc1)[Ru-]1[O]c2c4ccccc4c4c5c(c6ccccc6c(c25)=[O+]1)=[O+][Ru-]([O]4)[n+]1ccc(cc1)-n1cc-3nn1	cell growth or viability, MTT	24 h	4.5 µM
CC(CCC(=O)[O][Pt]([NH2])([NH2])([OH])([Cl])[Cl])C1CCC2C3CCC4CC(O)CCC4(C)C3CCC12C (stereo not shown)	cell viability, MTT	72 h	6.8 ± 0.3 µM
Oc1ccc(C#Cc2c(O)ccc3c2C(c2ccc(O)cc2)(c2ccc(O)cc2)c2cc(O)ccc2-3)cc1	cell growth or viability, MTT	48 h	20.9 µM
COc1ccc2c(c1)/C(=N/NC(N)=S)C(=O)N2CCn1cnc2c(N)ncnc21	cell growth or viability, SRB	–	6.03 µM
O=c1[nH]c(=O)n([C@H]2C[C@H](O)[C@@H](CO)O2)cc1F	cell growth or viability	–	> 10 µM
COc1ccc(C(C)N(C)c2nc(N)nc3nc[nH]c23)cc1 (stereo not shown)	cytotoxicity, MTT	–	> 50 µM
CCOC(=O)/C=C1\S/C(=N\N=C\c2cccc3cc4ccccc4nc23)N(C)C1=O	cell growth or viability, MTT	48 h	> 50 µM
O=C1C(Br)=C(Br)C(=O)c2ccccc21	cell growth or viability, MTT	–	18.4 µM
CCOC(=O)/C=C1\S/C(=N\N=C\c2cccc3cc4ccccc4nc23)N(c2ccccc2)C1=O	cell growth or viability, MTT	48 h	> 50 µM
NC(=O)c1nccn([C@@H]2O[C@H](CO)[C@@H](O)[C@H]2O)c1=O	cell growth or viability	–	> 10 µM
Cc1ccnc(-c2cc(C)ccn2)c1	cell growth or viability, MTT	48 h	> 50 µM
COc1ccc(N2C(=O)CS/C2=N\N=C\c2cccc3cc4ccccc4nc23)cc1	cell growth or viability, MTT	48 h	42.7 µM
CCCCCCC(=O)[O][Pt]([NH2])([NH2])([Cl])([Cl])[O]C(=O)CCC(C)C1CCC2C3CCC4CC(O)CCC4(C)C3CCC12C (stereo not shown)	cell viability, MTT	72 h	0.95 ± 0.05 µM
Cc1ccc2c(Br)cc(Br)c([O-])c2n1.Cc1ccc2c(Br)cc(Br)c([O-])c2n1.[Co+2].c1ccc(-c2ccccn2)nc1	cell growth or viability, MTT	48 h	16 µM
c1ccc2c(-c3cn(-c4ccncc4)nn3)c3ccccc3c(-c3cn(-c4ccncc4)nn3)c2c1	cell growth or viability, MTT	24 h	> 20 µM
O=c1[nH]c(=O)n([C@@H]2O[C@H](CO)[C@@H](O)[C@H]2O)cc1F	cell growth or viability	–	2.37 µM
CCOC(=O)/C=C1\S/C(=N\N=C\c2cccc3cc4ccccc4nc23)N(CC(C)C)C1=O	cell growth or viability, MTT	48 h	> 50 µM
O=C1C(=NN=c2[nH]ccs2)c2cc(Cl)ccc2N1CCn1ncc2c(=O)[nH]cnc21	cell growth or viability, SRB	72 h	0.77 µg/mL

Some of these lines once more:
Compound	assay	conditions	IC50
CNC(=O)C1CCCN(C(=O)C2CC3CCC2N3C(=O)[C@@H]2C[C@@H](O)CN2C(=O)NCc2cccc(Cl)c2F)C1 (mixture of isomers)	cell growth or viability, CCK-8	72 h	0.6 µM
COC(OC)c1ccc(-c2ccc(O)cc2)c(C(=C2C=CC(=O)C=C2)c2ccc(O)cc2)c1C#Cc1ccc(O)cc1	cell growth or viability, MTT	48 h	> 50 µM
COc1ccc(OC)c2c1CN(c1cn[nH]c(=O)c1Cl)CC2O (stereo not shown)	cytotoxicity, MTT	–	> 50 µM
CC(C)c1ccc(N(C)c2ccc3c(c2)OCC[C@H]3CNc2cnccc2C(=O)O)cc1	cell growth or viability, ATP luminescence	7 days	0.0521 µM
